Measurements gathered from unrelated publications.
Compare with care: the assays were run in different laboratories. Several values in a cell are separate wells, animals, samples, runs or records. ± marks the error that the study gave.

SMILES	tested on	assay	system	conditions	how to read	measurement	value
NC(=O)c1cnc2[nH]ccc2c1N[C@@H]1[C@@H]2CC3C[C@H]1C[C@@](O)(C3)C2		CD8+ effector memory T cells, flow cytometry	Japanese humans, peripheral blood	200 mg single dose	baseline: baseline	percent change	-0.43%
CN(C)C(=O)Oc1cccc([N+](C)(C)C)c1		neuromuscular block reversal	rat	dose not given, 6 (unit not given), added: cisatracurium	baseline: T1 twitch	train-of-four ratio	41
NCC(=O)Nc1cncc(-c2nn3c(=O)cc(N4CCNCC4)nc3s2)c1		ADP-induced platelet aggregation, light transmission aggregometry	stable CAD patients on aspirin	subcutaneous, 0.075 mg/kg, 30 min post-dose, added: ADP 20 µM	baseline: placebo	inhibition of platelet aggregation	77.9%
C=CCn1c(=O)c2cnc(Nc3ccc(N4CCN(C)CC4)cc3)nc2n1-c1ccc2c(n1)[C@@](O)(CC)CC2			NOD/SCID mouse, A-427 xenograft	oral, 80 mg/kg, 5 d on 2 d off ×4, day 29	baseline: vehicle	tumour volume	115%
Cc1ccc(N(O)N=Nc2ccc(S(=O)(=O)Nc3onc(C)c3C)cc2)cc1		carrageenan-induced paw edema	Wistar rat	oral, 100 mg/kg, 2 h after carrageenan, added: carrageenan 1% subplantar	higher = more edema	paw edema volume	5.32 ± 0.38 a.u.
Cc1cc(C)c(CNC(=O)c2cc(Cl)c3c(c2C)O[C@@](C)([C@H]2CC[C@H](N(C)C)CC2)O3)c(=O)[nH]1		IWG criteria	relapsed/refractory AITL patients	dose not given		stable disease as best response	5%
COc1ccc(-c2cncc(N[C@@H](C)c3cccc(NC(=O)c4cncc(C)c4)c3)n2)cc1OC		item: rno-miR-192-5p	rat SU5416/hypoxia model, lung	dose not given, unit not given	baseline: SU5416/hypoxia vehicle	delta delta Ct	-0.773
Cc1noc(NS(=O)(=O)c2ccc(N=NN(O)c3ccccc3)cc2)c1C		carrageenan-induced paw edema	Wistar rat	oral, 100 mg/kg, 0 h (baseline), added: carrageenan 1% subplantar	higher = more edema	paw edema volume	3.59 ± 0.41 a.u.
COc1ccc(F)cc1C(=O)NCc1ccc(-c2nn([C@@H](C)C(F)(F)F)c(N)c2C(N)=O)cc1			CLL/SLL patients	dose not given, prior BTKi stopped for progression		overall response rate	67%
C[C@@H](O)CCOC(=O)C[C@@H](C)O			human	oral drink, dose not given, 180 min post dose, median, all participants		plasma glucagon	19 pM
CCCN(O)N=Nc1ccc(S(=O)(=O)Nc2nccs2)cc1		carrageenan-induced paw edema	Wistar rat	oral, 100 mg/kg, 3 h after carrageenan, added: carrageenan 1% subplantar	higher = more edema	paw edema volume	5.39 ± 0.66 a.u.
c1ccc(-c2n[nH]cc2-c2ccnc3ccccc23)nc1		kinase binding, competitor, MIB/MS competition, item: HRR25	Candida albicans cell lysate	10 µM	baseline: DMSO	log2 fold change	-1.17
Cc1cc(NS(=O)(=O)c2ccc(N=NN(C)O)cc2)no1		carrageenan-induced paw edema	Wistar rat	oral, 100 mg/kg, 1 h after carrageenan, added: carrageenan 1% subplantar	higher = more edema	paw edema volume	5.68 ± 0.82 a.u.
O=C(OC(C(F)(F)F)C(F)(F)F)N1CCN(Cc2cccc(Oc3ccccc3)c2)CC1		PET blocking study	rhesus monkey, brain FCX	0.01 mg/kg, compound pretreatment, added: [18F]T-401 tracer		k4	0.0994 min⁻¹
CN(C)C(=O)c1cc2cnc(Nc3ccc(N4CCNCC4)cn3)nc2n1C1CCCC1		RNA-seq GSEA, item: HALLMARK_XENOBIOTIC_METABOLISM	MB002 tumour	concentration not given, in vivo	baseline: vehicle, direction not given	GSEA enrichment score	0.319
CC#CC(=O)N[C@H]1CCCN(c2c(F)cc(C(N)=O)c3[nH]c(C)c(C)c23)C1		item: IgM	human	3 mg once daily, day 21	baseline: baseline	serum immunoglobulin	-4.6 % change
Cc1c(NC(=O)c2cccnc2)c(=O)n(-c2ccccc2)n1C		histology	Dmd C3333Y mice, gastrocnemius	dose not given		centrally nucleated fibres	66% and 62% and 47% and 64% and 53%
COc1nc(-c2cccc(-c3ccccc3)c2C)ccc1CNCCNC(=O)CCCCCCCCCCC(=O)N1CCN(CCNC(=O)c2cc3c(=O)n4cccc(C)c4nc3n(CCc3cccs3)c2=N)CC1		item: IFN-γ	mouse tumour model, tumour and peripheral blood	dose not given	baseline: vehicle	cytokine level	increased
OC(CCN1CCCCC1)(c1ccccc1)C1CC2C=CC1C2 (stereo not shown)		resting-state EEG	healthy elderly humans	oral, 2 mg, eyes open, LS mean	baseline: baseline	change, beta power, EEG O1-Pz	7.4%
COc1nc(NCc2cn(-c3ccc(C(=O)Nc4ccccc4)cc3)nn2)nc(OC)n1		cell viability, MTT	normal colonocytes, rat	72 h		IC50	158 ± 3.22 nM

SMILES	tested on	assay	system	conditions	how to read	measurement	value
Nc1nc2cc(-c3ccc4ncc(C(=O)N5CCOCC5)n4c3)ccc2o1		RECIST v1.1	advanced solid tumour patients	dose not given, 27 of 61 evaluable	baseline: patients	stable disease	44%
Cc1cn(-c2ccc3n(c2=O)CCN([C@@H](C)[C@@H]2CC[C@H](c4cc(F)c(Cl)cc4C(F)(F)F)O2)C3=O)cn1			human subjects, CSF	360 mg once daily for 14 days, 336 h	baseline: baseline, placebo-adjusted	CSF total Aβ change	-4.5%
Cc1n[nH]c2ccc(-c3cc(OC[C@@H](N)Cc4ccccc4)cnc3-c3ccoc3)cc12		kinase binding, competitor, MIB/MS competition, item: HSL1	Candida albicans cell lysate	100 nM	baseline: DMSO	log2 fold change	0.351
N#Cc1ccc2c(c1)[C@H]1CCCN(C(=O)c3ccc4[nH]cnc4c3)[C@H]1C2		item: HDL	human	240 mg once daily, day 28, adjusted mean		change from baseline	2.4 mg/dL
O=C(O)CNC(=O)Cc1ccccc1			ventricular cardiomyocytes, C57BL/6 mouse	dose not given, 0.012 s		sarcomere length	1.72 µm
COc1cc(F)c([C@@H]2CNC(=O)[C@H]2NC(=O)Nc2ccccc2)c(F)c1		terminal haemodynamics	rat, permanent coronary occlusion MI	1 mg/kg, 1008 h, 6 weeks post-MI		left ventricular end-diastolic pressure	14 ± 7 mmHg
NC/C(=C\F)COc1cccc(Cn2c(=S)[nH]c(=O)c3[nH]cnc32)c1			mouse, carrageenan air pouch, air pouch exudate	30 mg/kg, 12 h		total white blood cell count	9e+06 and 1.4e+07 and 2e+07 and 1.8e+07 and 6.8e+07 and 1.7e+07
Cn1cc(-c2ccc(-c3cncc(Cl)c3N3CCC4(CCNC4=O)CC3)cc2)cn1	COLO 205	gene expression, microarray, item: TNFSF10 mRNA		concentration not given, 2 h	baseline: untreated cells	log2 fold change	-1.5
CCN(O)N=Nc1ccc(S(=O)(=O)Nc2cc(C)on2)cc1		carrageenan-induced paw edema	Wistar rat	oral, 100 mg/kg, 1 h after carrageenan, added: carrageenan 1% subplantar	higher = more edema	paw edema volume	5.7 ± 0.81 a.u.
COc1cc(Nc2ncc3c(n2)-c2ccc(Cl)cc2C(c2c(F)cccc2OC)=NC3)ccc1C(=O)O			mouse, NB-1771 neuroblastoma xenograft	oral, 20.8 mg/kg, day 21	baseline: vehicle	relative tumour volume T/C	0.11
N#Cc1ccc2c(-c3ccncc3)c(-c3ccc(F)cc3)nn2c1		kinase binding, competitor, MIB/MS competition, item: ENV7	Candida albicans cell lysate	100 nM	baseline: DMSO	log2 fold change	-0.0278
CC(C)NCC(O)c1ccc(O)c(O)c1 (stereo not shown)			ventricular cardiomyocytes, C57BL/6 mouse	dose not given, 0.544 s		sarcomere length	1.5 µm
Cc1cc(F)cc2c(CCC(=O)N[C@@H]3C(=O)NC[C@H]3O)c(-c3ccc(F)cc3)[nH]c12		proteinuria	APOL1 G2 mice	30 mg/kg twice daily, added: IFNγ		UACR AUC(day 6-14)	16500 µg·days/mg
C[C@H](Oc1ccc(Br)cc1-c1ccon1)C(=O)O		last response peak	human, tibialis anterior muscle	50 mg, 15 Hz, single ascending dose		difference from placebo	-9.34%
COc1ccccc1[C@H](Cn1c(=O)n(C(C)(C)C(=O)O)c(=O)c2c(C)c(-c3ncco3)sc21)OC1CCOCC1			human	20 mg, post-treatment		serum leptin	4.78 ± 2.93 ng/mL
O=C1Nc2cc3[nH]nc(-c4ccncc4)c3cc2CN1Cc1ccccc1		RECIST v1.1	human, relapsed or refractory advanced solid tumours	intravenous, 0.9 mg/kg, pooled schedules		partial response, best response	0%
CCN1/C(=C/C(C)=O)Sc2ccc(F)cc21		von Frey test	mouse, burn injury pain model, contralateral paw	intraperitoneal, 10 mg/kg		paw withdrawal threshold	no effect
CN(O)N=Nc1ccc(S(=O)(=O)Nc2nccs2)cc1		carrageenan-induced paw edema	Wistar rat	oral, 100 mg/kg, 1 h after carrageenan, added: carrageenan 1% subplantar	higher = more edema	paw edema volume	6 ± 1.33 a.u.
N[C@@H](CC(=O)N1CCn2c(nnc2C(F)(F)F)C1)Cc1cc(F)c(F)cc1F			type 2 diabetes patients on metformin, fasting plasma	oral, 100 mg once daily, 28 weeks		triglycerides	176 mg/dL
COc1ccc2c(c1)c(CC(=O)O)c(C)n2C(=O)c1ccc(Cl)cc1			mouse carrageenan inflammation	oral, 1 mg/kg		paw oedema and hyperalgesia	no effect
